Measured values pooled from the literature.
Protocols differ between the studies behind these lines. Several values in a cell are separate wells, animals, samples, runs or records. ± gives the spread as reported.
HDAC6 ZnF-UBD domain: Protein deacetylase HDAC6, ZnF-UBD domain (HDAC6, Homo sapiens, UniProt Q9UBN7)
Sequence of UniProt Q9UBN7 (whole entry, looked up): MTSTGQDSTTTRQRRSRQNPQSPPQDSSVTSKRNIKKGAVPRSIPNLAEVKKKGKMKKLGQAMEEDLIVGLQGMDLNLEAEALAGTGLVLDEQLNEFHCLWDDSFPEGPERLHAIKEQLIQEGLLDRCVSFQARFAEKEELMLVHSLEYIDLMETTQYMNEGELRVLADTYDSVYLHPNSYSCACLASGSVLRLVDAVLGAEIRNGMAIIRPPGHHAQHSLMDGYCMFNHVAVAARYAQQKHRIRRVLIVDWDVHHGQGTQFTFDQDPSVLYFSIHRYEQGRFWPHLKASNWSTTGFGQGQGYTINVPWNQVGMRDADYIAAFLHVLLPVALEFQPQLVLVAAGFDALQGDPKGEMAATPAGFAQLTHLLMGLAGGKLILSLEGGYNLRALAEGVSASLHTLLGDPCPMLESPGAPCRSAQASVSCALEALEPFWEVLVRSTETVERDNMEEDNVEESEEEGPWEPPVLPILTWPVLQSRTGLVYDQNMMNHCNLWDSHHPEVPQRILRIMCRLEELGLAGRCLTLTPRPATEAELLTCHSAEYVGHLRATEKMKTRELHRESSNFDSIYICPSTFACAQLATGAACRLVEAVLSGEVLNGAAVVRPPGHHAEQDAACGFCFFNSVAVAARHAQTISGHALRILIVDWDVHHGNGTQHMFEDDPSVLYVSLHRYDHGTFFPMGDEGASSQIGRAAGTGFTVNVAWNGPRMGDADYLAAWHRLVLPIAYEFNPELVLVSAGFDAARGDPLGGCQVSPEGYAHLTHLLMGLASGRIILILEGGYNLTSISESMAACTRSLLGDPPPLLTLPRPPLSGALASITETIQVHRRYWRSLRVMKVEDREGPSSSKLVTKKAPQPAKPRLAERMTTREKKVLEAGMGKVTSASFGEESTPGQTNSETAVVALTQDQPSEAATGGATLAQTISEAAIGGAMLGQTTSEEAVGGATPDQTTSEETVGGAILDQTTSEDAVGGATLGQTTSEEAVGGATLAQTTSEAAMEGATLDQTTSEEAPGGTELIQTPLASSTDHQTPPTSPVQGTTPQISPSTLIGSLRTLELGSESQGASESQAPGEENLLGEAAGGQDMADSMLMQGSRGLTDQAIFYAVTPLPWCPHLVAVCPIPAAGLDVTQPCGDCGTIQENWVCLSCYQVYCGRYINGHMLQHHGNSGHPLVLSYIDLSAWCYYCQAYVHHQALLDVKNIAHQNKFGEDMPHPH

With `C=Cc1c2[n-]c(c1C)/C=c1\[n-]/c(c(C)c1C=C)=C\c1[n-]c(c(CCC(=O)O)c1C)/C=c1\[n-]c(c(C)c1CCC(=O)O)=C2.[Sn+4]` the fold change was 2.96 (SH-SY5Y; RNA-seq, item: UBASH3B mRNA; 5 µM, 5 h; baseline: untreated cells).
`Cc1cc(Nc2ncc(Cl)c(Nc3ccccc3S(=O)(=O)C(C)C)n2)c(OC(C)C)cc1C1CCNCC1` gave an Emax of 99.6% (Ba/F3 EML4-ALK v3; cell viability).
`CC(C)NCC(O)c1ccc(O)c(O)c1` (centres unmarked) has a sarcomere length of 1.75 µm (mouse ventricular cardiomyocytes; dose not given, 0.091 s).
For `OCCCc1n(Cc2ccc3ccccc3c2)c2ccccc2[n+]1Cc1ccc2ccccc2c1`, “mean growth percentage” read 33.1% (NSCLC cell lines; NCI60 one-dose screen; 10 µM).
`O=c1cc(-c2ccc(O)cc2)oc2c([C@@H]3OC[C@H](O)[C@H](O)[C@H]3O)c(O)c([C@@H]3O[C@H](CO)[C@@H](O)[C@H](O)[C@H]3O)c(O)c12` — result for cytokine level: “decreased” (AC16; item: IL-1β, MCP-1, IL-6; culture supernatant; concentration not given, with: angiotensin II).
For `Cn1cc(Nc2nccc(-c3ccc4c(c3)CN(C3COC3)CC[C@H]4NC(=O)c3cn(C(C)(C)C)nn3)n2)cn1`, “pathway activation z-score” read 0.905 (mouse splenic B cells; item: Neuregulin signalling; 30 mg/kg, IgD-activated in vivo; baseline: vehicle, direction not given).
`COc1ccc(-n2nc(C(C)=O)s/c2=N\N=C(/C)c2ccc(NC(=O)c3ccc(Cl)cc3)cc2)cc1` has a toxicity of 87.6% (HepG2; 0.625 µM).
With `CC#CC(=O)N1CCC[C@H]1c1nc(-c2ccc(C(=O)Nc3ccccn3)cc2)c2c(N)nccn12` the maximum inhibition was 75.8% (TMD8 wild-type; calcium flux, FLIPR; 4 h preincubation, with: anti-IgM).
`Cc1c(C)c2c(c(C)c1O)CCC(C)(COc1ccc(CC3SC(=O)NC3=O)cc1)O2` (centres unmarked) gave an IC50 of 8 µM (hepatocytes, iPSC-derived, line L1; cell viability, RealTime-Glo MT; 72 h, differentiation day 23).
The Kd of `O=C(O)CCC(=O)c1ccc2c(c1)CCC(=O)N2` is reported as 104 µM (HDAC6 ZnF-UBD domain).
For `O=C(/C=C/C=C/C=C/C1CCCCC1)NC1=C[C@@](O)(/C=C/C=C/C=C/C(=O)NC2=C(O)CCC2=O)[C@@H]2O[C@@H]2C1=O`, the GI50 was 9.93 µM (SW1271; cell growth, CellTiter-Glo; 78 h).
`COc1cc(/C=C/C(=O)N2CCC=CC2=O)cc(OC)c1OC` gave a mRNA level of 74.6 ± 15.6% (MDA-MB-468; qRT-PCR, item: GLUT1; 30 µM, 6 h; baseline: time zero).
For `O=c1[nH]nc(OCCCc2ccc(Cl)cc2)c(NCc2cccnc2)c1Br`, “normalized enrichment score” read 0.926 (HEK-293T; RNA-seq GSEA, item: HALLMARK_COAGULATION; concentration not given; direction not given).
`COc1cc2ncnc(Nc3ccc(Oc4ccccc4)cc3C)c2cc1OC.O=C(O)C(F)(F)F` — result for “Bliss synergy score”: -13.7% (SW1417 (BRAF V600E); resazurin; concentration not given, 72 h, with: trametinib; direction not given).
Under “TAZ band intensity”, `CC/C(=N\NC(=O)NCc1cccc(O)c1)c1ccc(O)c(C)c1O` is recorded as 0.19 ± 0.08 (SK-OV-3; Western blot; 10 µM, 6 h, 2D culture, unit not given; baseline: DMSO).
With `Cc1nn(-c2nc3ccc(Cl)c(Cl)c3[nH]2)c(O)c1C1OC(=O)c2ccccc21` (centres unmarked) the phospho-TBK1/TBK1 ratio was 0.756 and 1.14 and 0.79 (RAW-ISG; western blot; 10 µM, with: HT-DNA; baseline: vehicle).
For `C=C1CN(S(=O)(=O)c2ccc(C)cc2)CCCN(Cc2ccccc2)CCCN(S(=O)(=O)c2ccc(C)cc2)C1`, “polyubiquitinated FLuc level” read 5.04 (HEK293 with FLuc reporter; FLAG-ubiquitin immunoprecipitation; concentration not given, 6 h, unit not given; baseline: mock).
`CCn1cc(-c2cc(Cn3ccnc3)cc3c2CCN([C@H](c2cc(OC)ccn2)C2CC2)C3=O)c(C(F)(F)F)n1` gave an EC50 of 1.06 µM (769-P; cell growth, inhibitor; 120 h).
`Cn1cc(-c2ccc(-c3cncc(Cl)c3N3CCC4(CCNC4=O)CC3)cc2)cn1` — result for “fold change in expression”: -2 (COLO 205; microarray, item: c-Myb; concentration not given, 2 h; baseline: untreated cells).
`O=C(Nc1c(Cl)cncc1Cl)c1ccc(OC(F)F)c(OCC2CC2)c1`: “cAMP level difference” -0.51 (PBMC; MSD; 10 µM, unit not given, with: PGE2; baseline: DMSO).
For `Cc1cccc(-c2[nH]c(CNc3ccccc3F)nc2-c2ccc3ncnn3c2)n1`, the viability was 14% (MM1.S; XTT; 3 µM; baseline: untreated).
The IC50 of `CCCCN1C[C@H](O)[C@@H](O)[C@@H](O)[C@H]1CO` is reported as 5.6 µM (sample C patient fibroblasts; Gb3 level lowering, LC-MS/MS, item: Gb3 d18:1/18:0; 216 h).
For `S=c1n(Cc2ccc3ccccc3c2)c2ccccc2n1Cc1ccc2ccccc2c1`, “mean growth percentage” read 84.8% (NSCLC cell lines; NCI60 one-dose screen; 10 µM).
`Cc1n(Cc2ccc3ccccc3n2)cc[n+]1Cc1ccc2ccccc2c1.[Br-]` gave a TGI of at least 0.671 µM (NSCLC cell lines; lower end of range).
For `S=C(Nc1ccccc1)Nc1nccs1`, the AC50 was 0.061 µM (differentiated LUHMES MT1G-HiBiT neurons; item: MT1G; 24 h).
`Cc1cc2c(cc1C)[n+](Cc1ccc3ccccc3c1)cn2Cc1ccc2ccccc2c1` — result for “mean growth percentage”: -59% (NSCLC cell lines; NCI60 one-dose screen; 10 µM).
`CCCCc1nc(Cl)c(CO)n1Cc1ccc(-c2ccccc2-c2nn[nH]n2)cc1`: “log2 fold change” 1.52 (human PBMC; RNA-seq, item: PLAUR mRNA; 10 µg/mL, 24 h; baseline: untreated control).
`c1ccc2[nH]ccc2c1`: “mRNA level, LS mean” 13.2 counts per million (HCT-8; RNA-seq, item: DDIT3; concentration not given).
For `Nc1cccc2c1C(=O)N(C1CCC(=O)NC1=O)C2=O` (centres unmarked), “surface marker level” read 161% (RPMI-8226; flow cytometry, item: CD6; concentration not given; baseline: comparator compound alone).
For `O=C1[C@H]2CCCN2[C@H](c2ccc3c(c2)OCO3)N1c1ccc(Cl)c(Cl)c1` (mixture of isomers), “mutant huntingtin-induced cytotoxicity” read “decreased” (PC-12, differentiated; 50 µM, 4 days).
Under growth inhibition, `CC(C)(C)c1cc(NC(=O)Cc2ccc(Nc3ncnc4sccc34)cc2)no1` is recorded as “decreased” (LC-2/ad; resazurin; concentration not given).
`COc1cnc2cccc(N3CCc4c(cc(Cn5ccnc5C)cc4-c4cn(C)nc4C(F)(F)F)C3=O)c2c1` has an EC50 of 4.88 µM (Lu-99; cell growth, inhibitor; 120 h).
For `CCOC(=O)C1CCN(C(=O)C(C)(C)NC(=O)Nc2ccc(Cl)cc2Cl)CC1`, “number of differentially expressed genes” read 284 (Drosophila S3; RNA-Seq; 1 µM, 4 h, with: oleic acid 200 µM; baseline: DMSO with oleic acid).
`O=C(O)CCc1cnccn1` gave a Kd of over 1000 µM (HDAC6 ZnF-UBD domain).
Under “log2 fold change”, `Cc1cc(Nc2ncc(Cl)c(Nc3ccccc3S(=O)(=O)C(C)C)n2)c(OC(C)C)cc1C1CCNCC1` is recorded as -2.56 (CLB-BAR; phosphoproteomics LC-MS/MS, item: SLC20A2 phosphorylation; 200 nM, 60 min; baseline: untreated).
`C[C@@H]1O[C@@H](OC[C@H]2O[C@@H](Oc3c(-c4ccc(OCCO)c(OCCO)c4)oc4cc(OCCO)cc(O)c4c3=O)[C@H](O)[C@@H](O)[C@@H]2O)[C@H](O)[C@H](O)[C@H]1O` gave a TEER increase of 15% (Caco-2 monolayers; 100 µg/mL, 45 min).
`Cc1ccc2c(c1)C(=O)[C@]1(O)CCN(c3ccc4nc(C)ccc4c3)C1=N2.Cl` — result for “PDGFRα turnover slowing”: over 3 fold (murine cells; concentration not given, with: cycloheximide; baseline: vehicle).
`CCOC(=O)/C=C/C(=O)N(CC(C)C)NC(=O)[C@H](CC(C)C)NC(=O)[C@H](CC(C)C)NC(=O)OCc1ccccc1` has a viability decrease of 32% (L-363; MTS; 10 µM, 72 h).
The EC50 of `CCn1cc(-c2cc(Cn3ccoc3=N)cc3c2CCN([C@@H](C)c2cc(OC)ccn2)C3=O)c(C(F)(F)F)n1` is reported as 0.0256 µM (KP-4; cell growth, inhibitor; 120 h).
`C=CCn1c(=O)c2cnc(Nc3ccc(N4CCN(C)CC4)cc3)nc2n1-c1ccc2c(n1)[C@@](O)(CC)CC2` — result for “G2/M phase mitotic cells”: 5.38% (MDA-MB-231; flow cytometry; concentration not given).
`Cl.Cl.NCCNS(=O)(=O)c1ccc(Cl)c2ccncc12`: “relative cell number” 119% (SK-OV-3; ATP; 2D monolayer culture; 0.01 µM, 4 days; baseline: untreated).
`CCOc1cc([C@@H](CS(C)(=O)=O)N2C(=O)c3cccc(NC(C)=O)c3C2=O)ccc1OC`: “cAMP level difference” -0.913 (PBMC; MSD; 0.0001 µM, unit not given, with: PGE2; baseline: DMSO).
For `CCCc1n(Cc2ccc3ccccc3n2)cc[n+]1Cc1ccc2ccccc2c1.[Cl-]`, the TGI was at least 0.671 µM (NSCLC cell lines; lower end of range).
`COc1cccc(C2CC(c3ccccc3OC)n3nc(N)nc3N2)c1` (centres unmarked) gave a maximum inhibition of 3% (MEF with TRE-FLAG-LMNB1; LMNB1 level, high-content screening; 250 µM).
The reporter activity of `CC(=O)Nc1cccc(C(=O)Nc2ccc(Nc3nccc(-c4cccnc4)n3)c(C)c2)c1` is reported as 0.582 (AP1 reporter HEK293; AP1 reporter gene, inhibitor; 10 µM, 6 h, compound kept in medium, unit not given, with: PMA; baseline: PMA alone).
`Clc1nc(NCc2ccco2)c2[nH]cnc2n1` gave a ΔPSI of -0.201 (FD iPSC-derived cardiomyocytes; alternative splicing, RNA-seq, item: C17orf53 exon chr17:44150960-44151044; unit not given; baseline: DMSO minus compound).
With `[Cl-].[Cl-].[Os+2].c1cnc2c(c1)ccc1cccnc12.c1cnc2c(c1)ccc1cccnc12.c1cnc2c(c1)ccc1cccnc12` the GI50 was 4.98 µM (SK-MEL-28; sulforhodamine B; normoxia, with: white visible light).
`N#Cc1ccc(Oc2ccc3c(c2)COB3O)cc1` — result for “cAMP level difference”: -1.75 (PBMC; MSD; 0.001 µM, unit not given, with: PGE2; baseline: DMSO).
For `Nc1ncnc2c1ncn2[C@@H]1O[C@H](CO)[C@@H](O)[C@H]1O`, “T cell proliferation” read 0.85 a.u. and 0.7 a.u. and 1.1 a.u. (activated human T cells; 100 µM; higher = more proliferation).
For `C[C@H]1CN(C2COC2)CCN1c1ccc(Nc2cc(-c3ccnc(N4CCn5c(cc6c5CC(C)(C)C6)C4=O)c3CO)cn(C)c2=O)nc1`, the maximum inhibition was 94.3% (TMD8 wild-type; calcium flux, FLIPR; 4 h preincubation, with: anti-IgM).

A few entries again:
The Kd of `O=C(O)CCC(=O)c1ccc2c(c1)CCC(=O)N2` is reported as 104 µM (HDAC6 ZnF-UBD domain).
`COc1ccc(-n2nc(C(C)=O)s/c2=N\N=C(/C)c2ccc(NC(=O)c3ccc(Cl)cc3)cc2)cc1` has a toxicity of 87.6% (HepG2; 0.625 µM).
`Cc1ccc2c(c1)C(=O)[C@]1(O)CCN(c3ccc4nc(C)ccc4c3)C1=N2.Cl` — result for “PDGFRα turnover slowing”: over 3 fold (murine cells; concentration not given, with: cycloheximide; baseline: vehicle).
`N#Cc1ccc(Oc2ccc3c(c2)COB3O)cc1` — result for “cAMP level difference”: -1.75 (PBMC; MSD; 0.001 µM, unit not given, with: PGE2; baseline: DMSO).
For `S=c1n(Cc2ccc3ccccc3c2)c2ccccc2n1Cc1ccc2ccccc2c1`, “mean growth percentage” read 84.8% (NSCLC cell lines; NCI60 one-dose screen; 10 µM).
With `CC#CC(=O)N1CCC[C@H]1c1nc(-c2ccc(C(=O)Nc3ccccn3)cc2)c2c(N)nccn12` the maximum inhibition was 75.8% (TMD8 wild-type; calcium flux, FLIPR; 4 h preincubation, with: anti-IgM).
